Assay results from different studies.
Lines come from different studies, so protocols differ. Converted amounts (≈) assume the structure as drawn.

[Cl-].[Cl-].[Mn+2].c1ccc(CN2CCCNCCN(Cc3ccccc3)CCCNCC2)cc1
IC90 (Leishmania donovani; parasite growth, resazurin; 72 h, promastigote): 12.4 µM

Fc1ccc2nc3c4cccnc4c4ncccc4c3nc2c1.[Cl-].[Cl-].[Ru+2].c1ccncc1.c1ccncc1.c1ccncc1.c1ccncc1
MIC90 (Enterococcus faecalis; VRE ATCC 51299; LED irradiation 470 nm): 8 µM

CC(=O)Oc1ccc(Cn2ccc(=O)[nH]c2=O)cc1C1OC(c2ccccc2)=NN1C(C)=O (centres unmarked)
EC50 (varicella-zoster virus; plaque formation, plaque reduction; HEL fibroblasts, TK+ strain OKA): > 100 µM

CC#N.[Cl][Mn-2]([Cl])([Cl])[Cl].[Mn+2].c1ccc(CN2CCCN3CCCN(CCCN(Cc4ccccc4)CC3)CC2)cc1
IC90 (Leishmania donovani; parasite growth; THP-1 macrophages; intracellular amastigotes): 2.17 µM

C=C(C)[C@@H]1CCC=C2CC[C@]3(C)[C@H](CC[C@@H]4[C@@]5(C)CCCNC(C)(C)[C@@H]5CC[C@]43C)[C@H]21
selectivity index (Human papillomavirus 11; viral replication; C-33 A; baseline: CC50 over EC50): < 4

CN1CC(=O)N=C1N.C[C@H](CCC(=O)O)[C@H]1CC[C@H]2[C@@H]3CC[C@@H]4C[C@H](O)CC[C@]4(C)[C@H]3CC[C@]12C
antibacterial activity (Shigella flexneri; ATCC 9199; 1 mg per disc, 18 to 24 h, 37 °C): inactive

COc1ccc(-c2ccc3oc(-c4ccc(OC)cc4)c(C#CC4(O)CCCCC4)c3c2)cc1
remaining activity (hepatitis C virus; HCV replicon replication; Huh-7.5.1, genotype 1a transient replicon; 10 µM; baseline: DMSO): 137%

[O-][N+]1=C(c2ccccc2)C2=NCCCN2c2ncccc21
MIC (Bacteroides fragilis; microbial growth; ATCC25285): 0.125 µg/mL (≈ 0.449 µM)

CC(=O)[O-].F[P-](F)(F)(F)(F)F.[Ni+2].c1ccc(CN2CCN3CCN(CC2)CCN(Cc2ccccc2)CC3)cc1
IC90 (Leishmania donovani; parasite growth, resazurin; 72 h, promastigote): > 20 µM

N#Cc1c2nc3ccccc3nc2n2ccc(NC(=O)c3ccccc3Cl)cc12
MIC50 (Mycolicibacterium smegmatis; pTet-ClpP1P2 chromosomal): > 100 µM

Cc1cc(=O)nc(NC(=O)NCCCCCCNC(=O)NCCCCCCNC(=O)OCCOCCOCCOCCOCCOCCOCC(=O)N[C@@H](CCCCN)C(=O)N[C@@H](CCCCN)C(=O)N[C@@H](Cc2ccccc2)C(=O)N2CCC[C@H]2C(=O)N[C@@H](Cc2c[nH]c3ccccc23)C(=O)N[C@@H](Cc2c[nH]c3ccccc23)C(=O)N[C@@H](Cc2c[nH]c3ccccc23)C(=O)N2CCC[C@H]2C(=O)N[C@@H](Cc2ccccc2)C(=O)N[C@@H](CCCCN)C(=O)N[C@@H](CCCCN)C(N)=O)[nH]1
LC99.9 (Escherichia coli; ATCC 8937, RPMI medium; 24 h, 37 °C): 30 µM

c1ccc(CN2CCNCCN(Cc3ccccc3)CCNCC2)cc1
IC90 (Leishmania donovani; parasite growth, resazurin; 72 h, promastigote): > 20 µM

CC1(C)C(C=C(Cl)Cl)C1C(=O)OCc1ccccc1 (centres unmarked)
resistance ratio (Anopheles funestus; glazed tile contact bioassay; FUMOZ-R resistant; 24 h; baseline: LC50 FUMOZ-R over LC50 FANG): 3.77

S=C(NCc1ccccn1)NCc1ccccn1
inhibition zone diameter (Agrobacterium tumefaciens; 30 µg/mL): 26 mm

A few entries again:
CC#N.[Cl][Mn-2]([Cl])([Cl])[Cl].[Mn+2].c1ccc(CN2CCCN3CCCN(CCCN(Cc4ccccc4)CC3)CC2)cc1
IC90 (Leishmania donovani; parasite growth; THP-1 macrophages; intracellular amastigotes): 2.17 µM

C=C(C)[C@@H]1CCC=C2CC[C@]3(C)[C@H](CC[C@@H]4[C@@]5(C)CCCNC(C)(C)[C@@H]5CC[C@]43C)[C@H]21
selectivity index (Human papillomavirus 11; viral replication; C-33 A; baseline: CC50 over EC50): < 4
